Experimental data from different studies.
± marks the error that the study gave. Converted amounts (≈) assume the structure as drawn.

The micronucleated PCE of Cc1noc(C)c1Cn1cc(N2C(=O)CN(Cc3cccc(O)c3)C2=O)cn1 is reported as 0.8 per 2000 PCE (CD-1 mouse, male, bone marrow; 1000 mg/kg/day, 24 h).
For COc1ccc2nc3cc(Cl)ccc3c(Nc3cc(CN4CCCC4)c(O)c(CN4CCCC4)c3)c2n1, the basophils was 1.42% (mouse, blood; intraperitoneal, 14 mg/kg).
NCCCC[C@@H]1NC(=O)[C@@H](Cc2c[nH]c3ccccc23)NC(=O)[C@H](c2ccccc2)NC(=O)[C@@H]2C[C@@H](OC(=O)NCCN)CN2C(=O)[C@H](Cc2ccccc2)NC(=O)[C@H](Cc2ccc(OCc3ccccc3)cc2)NC1=O: “placebo-corrected QTcF change” 7.3 ms (healthy volunteers, male; 600 µg twice daily, 4.0 h, post hoc).
C=CC(=O)N1CC[C@H](n2nc(C#Cc3cc(OC)cc(OC)c3)c3c(N)ncnc32)C1: “hyponatremia incidence, grade ≥3” 4.7% (human patients, all; oral, dose not given, QD regimen, adverse drug reaction).
CCS(=O)(=O)Nc1ccc(Oc2ccc(F)cc2F)c(-c2cn(C)c(=O)c3[nH]ccc23)c1 — result for “treatment-emergent adverse events”: 0% (platelet count decreased leading to discontinuation; human, relapsed/refractory AML; oral, dose not given).
Cn1cc(-c2nc(N[C@@H]3CCCC[C@@H]3N)c(F)c3c2C(=O)NC3)cn1 — result for “hemorrhagic adverse events”: 13% (measured: Hematuria; patients with relapsed or refractory AML; oral, 60 mg twice daily).
With Cc1nc([C@@](C)(CC2CC2)NC(=O)c2cc(OCC(F)(F)F)c(C3CC3)cn2)no1 the half-life was 249 min (C57BL/6 mice; intravenous, 0.5 mg/kg).
CC(=O)c1c(C)c2cnc(Nc3ccc(C4CCN(CCS(C)(=O)=O)CC4)cn3)nc2n(C2CCCC2)c1=O gave an AUC(0-inf) of 2520 ng·h/mL (human, dose-escalation trial, plasma; oral, 100 mg twice daily, day 1, single dose).
C[C@H](NC(=O)c1c(C(F)F)nn(C)c1Oc1cccc(C(F)(F)F)c1)c1ccc(C(=O)O)cc1 gave an AUC(0-t) of 963 ng·h/mL (human, plasma; 125 mg, cycle 1 day 8, mean).
For C[C@H]1COCCN1c1nc(NCc2cccnc2C(F)(F)F)c2cccnc2n1, the Tmax was 10.2 min (BALB/c mice; oral, 10 mg/kg).
For O=C(Nc1ccccc1)C1CCN(C(=O)Oc2cccnc2)CC1, “subjects with adverse event” read 0% (measured: skin disorders; healthy women; oral, 60 mg, 7 days).
With CO[C@H]1C[C@@H]2CC[C@@H](C)[C@@](O)(O2)C(=O)C(=O)N2CCCC[C@H]2C(=O)O[C@H]([C@H](C)C[C@@H]2CC[C@@H](OC(=O)NCCOCCOCCOCCOCCOCCOCCOCCOCCC(=O)N3CCc4cc(Cn5nc(-c6ccc7oc(N)nc7c6)c6c(N)ncnc65)ccc4C3)[C@H](OC)C2)C[C@@H](O)[C@H](C)/C=C(\C)[C@@H](O)[C@@H](OC)C(=O)[C@H](C)C[C@H](C)/C=C/C=C/C=C/1C the TRAE incidence was 50% (phase 1 dose escalation, measured: nausea; advanced solid tumour patients; intravenous, 6 mg weekly, any grade).
CC(C)[C@@H]1NC(=O)CNC(=O)[C@H](CC(N)=O)NC(=O)[C@H](CCCNC(=N)N)NC(=O)[C@H](Cc2ccc(O)cc2)NC(=O)[C@H](C(C)C)NC(=O)[C@@H](NC(=O)[C@@H](NC(=O)[C@H](CC(N)=O)NC(=O)[C@H](Cc2c[nH]c3ccccc23)NC(=O)[C@H](C)NC(=O)[C@H](Cc2ccccc2)NC(=O)CN)C(C)C)CSSC[C@@H](C(=O)N[C@@H](Cc2cnc[nH]2)C(=O)N[C@@H](CCCNC(=N)N)C(=O)N[C@@H](CCCNC(=N)N)C(=O)N[C@@H](C)C(=O)N[C@@H](CC(N)=O)C(N)=O)NC(=O)[C@H](C(C)C)NC(=O)[C@H](CCCNC(=N)N)NC1=O gave an eosinophils of 2.11 ± 0.16% (ICR mouse, blood; intramammary, 5 mg/kg, day 5, 3 d dosing).
The body weight of COc1cc(C2C3=C(COC3=O)N(CCO)c3cc4c(cc32)CCC4)cc(OC)c1OC (stereo not drawn) is reported as 20.7 g (female C57BL/6 mice; intraperitoneal, 400 mg/kg, 48 h, single dose, mean).
CC(=O)N1CCC(Nc2cc(C(=O)NC[C@H](O)CN3CCc4ccccc4C3)ncn2)CC1 has a deaths of 85% (relapsed or refractory MDS CMML AML; oral, 400 mg).
C[C@]1(CO)Cc2ncn(-c3ccc(C#N)c(Cl)c3)c2C(=O)O1 — result for “drug-related orthostatic hypotension incidence”: 33.3% (Japanese subjects; 20 mg single dose).
C[C@]12CC[C@@H]3c4ccc(O)cc4CC[C@H]3[C@@H]1CCC2=O — result for “final permeate concentration”: 0.3 nM (ultrafiltration; cow milk whey; 20 nM nominal in whole milk).
CC1(C)C(/C=C(\Cl)C(F)(F)F)C1C(=O)OC(C#N)c1cccc(Oc2ccccc2)c1 (stereo not drawn) — result for “enzyme contribution to clearance”: 0.5% (measured: CYP2C19; human, age 5 years).
Under “incidence of injection site erythema swelling”, C[C@@H](NC(=O)N1C(=O)[C@H](Cc2ccnc(N)c2)[C@H]1C(=O)O)C1CCCCC1 is recorded as 0% (healthy adult Chinese volunteers; continuous intravenous infusion, 2.25 mg/kg/h, 5-day infusion, CTCAE 5.0 grading).
The EC10 of COc1ccnc(C(=O)N[C@H]2COC(=O)[C@H](Cc3ccccc3)[C@@H](OC(=O)C(C)C)[C@H](C)OC2=O)c1OCOC(=O)C(C)C is reported as 0.91 ng/mL (≈ 1.48 nM) (total length; Pimephales promelas, flow-through water; 32 days).
For Nc1ncnc2c1ncn2[C@@H]1O[C@@H]2COP(=O)([S-])O[C@@H]3[C@H](O)[C@@H](COP([O-])(=S)O[C@H]2[C@H]1O)O[C@H]3n1cnc2c(N)ncnc21.[Na+].[Na+] (stereo partly drawn), the haematocrit was 24.5 ± 1.61% (non-tumor-bearing mice, blood; intravenous, 1 mg/kg, toxicity study).
For CCCCCCCCCCCCCCCC(=O)N[C@@H](CCC(=O)NCCCC[C@H](NC(=O)[C@H](CC(=O)O)NC(=O)[C@H](CO)NC(=O)[C@@H](NC(=O)[C@H](Cc1ccccc1)NC(=O)[C@@H](NC(=O)CNC(=O)[C@H](CCC(N)=O)NC(=O)[C@H](CO)NC(=O)[C@@H](N)Cc1c[nH]cn1)[C@@H](C)O)[C@@H](C)O)C(=O)N[C@@H](CO)C(=O)N[C@@H](CCC(=O)O)C(=O)N[C@@H](Cc1ccc(O)cc1)C(=O)N[C@@H](CC(C)C)C(=O)N[C@@H](CC(=O)O)C(=O)N[C@@H](CO)C(=O)N[C@@H](CCC(=O)O)C(=O)N[C@@H](CCCNC(=N)N)C(=O)N[C@@H](C)C(=O)N[C@@H](CCCNC(=N)N)C(=O)N[C@@H](CC(=O)O)C(=O)N[C@@H](Cc1ccccc1)C(=O)N[C@H](C(=O)N[C@@H](C)C(=O)N[C@@H](Cc1c[nH]c2ccccc12)C(=O)N[C@@H](CC(C)C)C(=O)N[C@@H](CCC(=O)O)C(=O)N[C@@H](C)C(=O)NCC(=O)NCC(=O)O)C(C)C)C(=O)O, “injection site bruising” read 0% (human, CrCl ≥ 90 mL/min; sc, 100 µg single dose).
The drug concentration of COc1ncccc1-c1cnn2ccc(N3CCN(C(=O)OC(C)C)CC3)nc12 is reported as 8.9 µM (mouse nerve ligation model, brain; oral, 10 mg/kg, 30 min after last dose, repeat dosing day 2).
Under “CK serum activity”, CCc1ccc(CC/C=C/c2ccc3c(c2)C(=O)CC3)cc1 is recorded as 412 U/L (Sprague-Dawley rat, male; oral, 450 mg/kg/day, 14 days).
Under “adverse event incidence”, [O-][S+]1CCc2nc(N3CCC(c4ncc(Cl)cn4)CC3)nc(NC3(CO)CCC3)c21 (stereo not drawn) is recorded as 37.5% (measured: nervous system disorders; healthy male humans; 12 mg twice daily).
CC(C)C[C@H](NC(=O)[C@H](CCCCN)NC(=O)OCC1c2ccccc2-c2ccccc21)C(=O)N[C@H](C(=O)N[C@@H](Cc1ccccc1)C(=O)N[C@@H](Cc1ccccc1)C(=O)N[C@@H](CCCCN)C(=O)NCC(=O)N[C@@H](Cc1ccccc1)C(=O)N[C@@H](C)C(=O)N[C@@H](Cc1c[nH]c2ccccc12)C(=O)N[C@@H](CC(N)=O)C(=O)N[C@H](C(=O)N[C@H]1CSSC[C@@H](C(=O)N[C@@H](Cc2c[nH]cn2)C(=O)N[C@@H](CCCNC(=N)N)C(=O)N[C@@H](CCCNC(=N)N)C(=O)N[C@@H](C)C(=O)N[C@@H](CC(N)=O)C(N)=O)NC(=O)[C@H](C(C)C)NC(=O)[C@H](CCCNC(=N)N)NC(=O)[C@H](C(C)C)NC(=O)CNC(=O)[C@H](CC(N)=O)NC(=O)[C@H](CCCNC(=N)N)NC(=O)[C@H](Cc2ccc(O)cc2)NC(=O)[C@H](C(C)C)NC1=O)C(C)C)C(C)C — result for “mean corpuscular haemoglobin”: 13.7 ± 0.16 pg (ICR mice, blood; intraperitoneal, 10 mg/kg, day 5).
For CN1CCN(S(=O)(=O)c2cc([N+](=O)[O-])ccc2N(CCOS(C)(=O)=O)CCOS(C)(=O)=O)CC1, the Tmax was 15 min (naive female NSG mice, plasma; intraperitoneal, 25 mg/kg).
O=S(=O)(Nc1ccccc1)c1ccc(NC(=S)Nc2ccccc2)cc1 — result for “mean corpuscular haemoglobin concentration”: 32.8 g/dL (mouse, male, blood; oral, 20 mg/kg daily, 14 days).
Nc1nc2cc(-c3ccc4ncc(C(=O)N5CCOCC5)n4c3)ccc2o1 — result for “discontinuation due to adverse events”: 4% (human, advanced solid tumours; 100–300 mg once daily, drug-related).
O=c1nc(NO)ccn1[C@@H]1O[C@H](CO)[C@@H](O)[C@H]1O has a long-term stability of 102 ± 1.7% (rat maternal placenta dialysate; 25 ng/mL, more than 4 weeks, -20 °C, low concentration, together with: molnupiravir 5 ng/mL).
For CCN1[C@@H](C(=O)NC23CCC(C(=O)O)(CC2)CC3)[C@H](c2cccc(Cl)c2F)[C@]2(C(=O)Nc3cc(Cl)ccc32)C12CCCCC2, the Tinnitus incidence was 9.1% (patients with advanced solid tumours; oral, 100 mg).
Under “plasma free fraction”, CCCCN1CCC(COC(=O)c2ccc(N)c(O[11CH3])c2)CC1 is recorded as 0.442 ± 0.028 (rhesus monkey, NaF-inhibited plasma; baseline).
Under “grade 1 or 2 Appendicitis”, COc1cc2c(Oc3ccc4[nH]c(C)cc4c3F)ccnc2cc1OCC1(N)CC1 is recorded as 0% (paediatric recurrent refractory sarcoma; 10 mg).
Cn1cncc1-c1c(F)cncc1NC(=O)c1c(N)nn2cc(F)cnc12: “grade ≥3 white cell decrease incidence” 0% (human patients; oral, 220 mg once daily).
C=CC(=O)Nc1cc(Nc2nccc(Nc3cc(Cl)c(F)cc3C(C)(C)O)n2)c(OC)cc1N1CC[C@@H](N(C)C)C1: “patients with hypokalaemia” 9.8% (human patients; oral, 300 mg, treatment-emergent adverse events).
COc1ccc(C[C@@H]2NC(=O)[C@H]([C@@H](C)O)NC(=O)[C@@H]3[C@@H]4CCN3C(=O)[C@@H]3Cc5cn(c6ccc(F)cc56)CCCCCCN(Cc5ccc(cc5)CCNC(=O)[C@]5(C)CCCN5C2=O)C(=O)CCC(=O)N[C@@H](C)C(=O)N[C@H](CNC(=O)CCCCC[N+](C)(C)C)C(=O)N[C@@H](Cc2cccc(c2)CNC(=O)CO4)C(=O)N3)cc1: “participants with adverse event” 2% (measured: Dizziness; humans; concentration not given, Study-001).
